# Measured values of several laboratories.
# Compare with care: the assays were run in different laboratories. Numbers after ± are the reported error.
SMILES,tested on,test,system,conditions,scale,measurement,result
CNCCCC1c2ccccc2C=Cc2ccccc21,HeLa,Ebola VLP entry,,,,IC50,12.2 µM
OCCN1CCN(CCC=C2c3ccccc3Sc3ccc(C(F)(F)F)cc32)CC1,Huh-7,pseudovirus entry,MERS-CoV spike pseudovirus,,,EC50,1.68 ± 0.22 µM
CN(C)c1ccc(C(=C2C=CC(=[N+](C)C)C=C2)c2ccccc2)cc1,HeLa,Ebola VLP entry,,,,IC50,3.43 µM
CN1CCCC(n2nc(Cc3ccc(Cl)cc3)c3ccccc3c2=O)CC1 (centres unmarked),Huh-7,pseudovirus entry,MERS-CoV spike pseudovirus,,,EC90,> 20 µM
CC[C@H](C)[C@H](NC(=O)[C@H](CC(C)C)NC(=O)[C@H](Cc1c[nH]c2ccccc12)NC(=O)[C@H](CCC(N)=O)NC(=O)[C@@H](NC(=O)[C@H](Cc1ccccc1)NC(=O)[C@H](C)NC(=O)[C@H](CCCCNC(=O)COCCOCCNC(=O)COCCOCCNC(=O)CC[C@H](NC(=O)CCCCCCCCCCCCCCCCCCC(=O)O)C(=O)O)NC(=O)[C@H](CCC(N)=O)NC(=O)[C@H](C)NC(=O)[C@@H](NC(=O)[C@H](CCCCN)NC(=O)[C@H](CC(=O)O)NC(=O)[C@H](CC(C)C)NC(=O)C(C)(C)NC(=O)[C@@H](NC(=O)[C@H](CO)NC(=O)[C@H](Cc1ccc(O)cc1)NC(=O)[C@H](CC(=O)O)NC(=O)[C@H](CO)NC(=O)[C@@H](NC(=O)[C@H](Cc1ccccc1)NC(=O)[C@@H](NC(=O)CNC(=O)[C@H](CCC(=O)O)NC(=O)C(C)(C)NC(=O)[C@@H](N)Cc1ccc(O)cc1)[C@@H](C)O)[C@@H](C)O)[C@@H](C)CC)[C@@H](C)CC)C(C)C)C(=O)N[C@@H](C)C(=O)NCC(=O)NCC(=O)N1CCC[C@H]1C(=O)N[C@@H](CO)C(=O)N[C@@H](CO)C(=O)NCC(=O)N[C@@H](C)C(=O)N1CCC[C@H]1C(=O)N1CCC[C@H]1C(=O)N1CCC[C@H]1C(=O)N[C@@H](CO)C(N)=O,,item: anti-drug antibodies,patients with type 2 diabetes,"0.5 mg, postbaseline, proof of concept, titre ≥1:20",,subjects with treatment-induced ADA,0%
Cc1noc2c(NC3CCOCC3)cc(-c3cccc(C(F)(F)F)c3)nc12,SARS-CoV-2,cytopathic effect,USA_WA1/2020,"retest, 8-point, duplicates",,efficacy,22.8%
Nc1ncnc2c1cnn2-c1ccccc1,mouse cerebrocortical neurons,,,"10 µM, added: NMDA 3 µM and PbTx-2 30 nM",,NMDA Ca2+ influx potentiation,no effect
CNC(=O)[C@@H](NC(=O)[C@H](CC(C)C)[C@H](O)C(=O)NO)C(C)(C)C,C2C12,,,"1 µM, added: PB venom",reference: venom alone,viability difference,9.35%
C[C@@H]1CN(CCCn2c3ccccc3c3ccccc32)C[C@H](C)N1.Cl.Cl,HeLa,Ebola VLP entry,,,,maximal inhibition,98%
CN(C)CCOc1ccc(/C(=C(/CCCl)c2ccccc2)c2ccccc2)cc1,Huh-7,pseudovirus entry,MERS-CoV spike pseudovirus,,,EC50,3.49 ± 0.44 µM
CSc1ccc2c(c1)C(N1CCN(C)CC1)Cc1ccccc1S2 (centres unmarked),HeLa,Ebola VLP entry,,,,IC50,8.63 µM
CC[C@H](C)[C@H](N)C(=O)NCC(=O)N[C@@H](CC(N)=O)C(=O)N[C@@H](Cc1ccc(O)cc1)C(=O)N[C@H](C(=O)N[C@H](C(=O)N[C@@H](CO)C(=O)N[C@@H](CS)C(=O)N[C@@H](CC(C)C)C(=O)N1CCC[C@H]1C(=O)N[C@@H](Cc1ccccc1)C(=O)N[C@H](C(=O)N[C@H](C(=O)N[C@@H](CC(N)=O)C(=O)N[C@@H](CS)C(=O)O)[C@@H](C)CC)[C@@H](C)O)C(C)C)[C@@H](C)O,human PBMC CD4 T cells,AIM,,,,responding donors,45%
O=C1NCN(c2ccccc2)C12CCN(CCCOc1ccc(F)cc1)CC2,HeLa,Ebola VLP entry,,,,maximal inhibition,76%
CCCCc1oc2ccccc2c1C(=O)c1cc(I)c(OCCN(CC)CC)c(I)c1,Huh-7,pseudovirus entry,MERS-CoV spike pseudovirus,,,EC90,> 20 µM
CC(=O)c1ccc(NC(=O)c2sc3nc(-c4cccs4)ccc3c2N)cc1,ScN2a-cl3,PrPSc level,,,,EC50,0.1 ± 0.02 µM
Cn1cnc(Cn2c(=O)[nH]/c(=N\c3cc4cn(C)nc4cc3Cl)n(Cc3cc(F)c(F)cc3F)c2=O)n1,,,"human, normal renal function","oral, 375 mg, treatment-related decreased GFR, Severe severity",,patients with adverse event,0%
COc1ccc(-c2ccc3c(N)c(C(=O)Nc4cc(F)ccc4F)sc3n2)cc1,ScN2a-cl3,PrPSc level,,,,EC50,> 10 µM
Cn1cc(CN2CCCC(COc3ccccc3C(=O)N3CCCCC3)C2)c2ccccc21 (centres unmarked),SARS-CoV-2,cytopathic effect,USA_WA1/2020,"retest, 8-point, duplicates",,efficacy,9.96%
CCc1c(C(=O)C(N)=O)c2c(OCC(=O)O)cccc2n1Cc1ccccc1,C2C12,,,"1 µM, added: TN venom",reference: venom alone,viability difference,7.54%
Nc1ncnc2c([C@@H]3N[C@H](CO)[C@@H](O)[C@H]3O)c[nH]c12,Western equine encephalitis virus,"viral replication, inhibitor",Vero 76,29.6 µM,,inhibition,78.5%

# A few entries again:
SMILES,tested on,test,system,conditions,scale,measurement,result
CC[C@H](C)[C@H](NC(=O)[C@H](CC(C)C)NC(=O)[C@H](Cc1c[nH]c2ccccc12)NC(=O)[C@H](CCC(N)=O)NC(=O)[C@@H](NC(=O)[C@H](Cc1ccccc1)NC(=O)[C@H](C)NC(=O)[C@H](CCCCNC(=O)COCCOCCNC(=O)COCCOCCNC(=O)CC[C@H](NC(=O)CCCCCCCCCCCCCCCCCCC(=O)O)C(=O)O)NC(=O)[C@H](CCC(N)=O)NC(=O)[C@H](C)NC(=O)[C@@H](NC(=O)[C@H](CCCCN)NC(=O)[C@H](CC(=O)O)NC(=O)[C@H](CC(C)C)NC(=O)C(C)(C)NC(=O)[C@@H](NC(=O)[C@H](CO)NC(=O)[C@H](Cc1ccc(O)cc1)NC(=O)[C@H](CC(=O)O)NC(=O)[C@H](CO)NC(=O)[C@@H](NC(=O)[C@H](Cc1ccccc1)NC(=O)[C@@H](NC(=O)CNC(=O)[C@H](CCC(=O)O)NC(=O)C(C)(C)NC(=O)[C@@H](N)Cc1ccc(O)cc1)[C@@H](C)O)[C@@H](C)O)[C@@H](C)CC)[C@@H](C)CC)C(C)C)C(=O)N[C@@H](C)C(=O)NCC(=O)NCC(=O)N1CCC[C@H]1C(=O)N[C@@H](CO)C(=O)N[C@@H](CO)C(=O)NCC(=O)N[C@@H](C)C(=O)N1CCC[C@H]1C(=O)N1CCC[C@H]1C(=O)N1CCC[C@H]1C(=O)N[C@@H](CO)C(N)=O,,item: anti-drug antibodies,patients with type 2 diabetes,"0.5 mg, postbaseline, proof of concept, titre ≥1:20",,subjects with treatment-induced ADA,0%
CCc1c(C(=O)C(N)=O)c2c(OCC(=O)O)cccc2n1Cc1ccccc1,C2C12,,,"1 µM, added: TN venom",reference: venom alone,viability difference,7.54%
Nc1ncnc2c([C@@H]3N[C@H](CO)[C@@H](O)[C@H]3O)c[nH]c12,Western equine encephalitis virus,"viral replication, inhibitor",Vero 76,29.6 µM,,inhibition,78.5%
